Measured values from different studies.
Values joined by “and” are separate records of one study, mostly repeats; a detail may differ. ± gives the spread as reported.

N[C@H](C(=O)N1CCCC1)C1CCN(c2nccc3c(-c4ncc(Cl)cc4Cl)cccc23)CC1  inhibition (human neutrophils; protein citrullination, inhibitor, flow cytometry, refers to: citrullinated histone H3; 316 pM, with: ionomycin): -6.93% and -3.58% and 8.2% and 8.14%
CC(C)C12OC1C1OC13C1(C)CCC4=C(COC4=O)C1CC1OC13C2OC(=O)CCCOC1OC(CO)C(O)C(O)C1O (centres unmarked)  IC50 (primary prostate epithelial cells; cell viability, XTT; 47 h): 4.72 µM
CC(CO)C1CN2C(=O)[C@H](CC(=O)O)NC(=O)CC(CC3CC3)NC(=O)[C@H](CCC(=O)O)NC(=O)CNC(=O)[C@H]([C@@H](C)O)NC(=O)[C@H](CCC(=O)O)NC(=O)[C@@H]2C1(F)F (some centres unmarked)  IL-6 protein level (RAW264.7; ELISA; concentration not given, with: LPS): inhibited
CC(C)(C)C(=O)OCOP(=O)(OCOC(=O)C(C)(C)C)C1CCCN(O)C1=O (centres unmarked)  TGI (NCI-H23): 3.4 µM
CC(C)CC(O)(CC(C)C)c1cn(C(=O)N2CCCC2)nn1  protein level (mouse T-cells; SILAC proteomics, refers to: Fdx1; 1 nM, 6 h, single peptides, unit not given; relative to: DMSO): 0.93 and 1.09
CC(=O)NCSC[C@H](NC(=O)[C@@H]1CCCN1C(=O)[C@H](C)NC(=O)[C@@H](NC(=O)CNC(=O)[C@@H](NC(=O)[C@H](Cc1c[nH]c2ccccc12)NC(=O)[C@H](C)NC(=O)CNC(=O)[C@H](CO)NC(=O)[C@H](C)NC(=O)[C@@H]1CCCN1C(=O)[C@H](Cc1c[nH]c2ccccc12)NC(=O)[C@H](C)NC(=O)[C@H](C)NC(=O)[C@@H](N)Cc1ccc(O)cc1)[C@@H](C)O)[C@@H](C)O)C(=O)N[C@@H](CO)C(=O)N[C@@H](C)C(=O)NCC(=O)N[C@H](C(=O)NCCOCCOCCOCCOCCOCCOCCOCCOCCOCCOCCOCCOCCC(=O)N[C@@H](CS)C(N)=O)[C@@H](C)O  selectivity ratio (H2882 lung carcinoma; cell binding, phage binding, refers to: output/input phage; 10 min, 37 °C; relative to: control phage): 1.1 ± 0.56
NC(=O)N/N=C/c1ccc(OCc2cccc(F)c2)cc1  glutathione peroxidase activity (OD450) (IMR-32; refers to: GPX3; 500 µg/mL, 24 h; higher = more activity): 0.159 a.u.
Cc1cc(Oc2nc(N3CC[C@@H](c4ccncc4)C3)ncc2F)[nH]n1  IC50 (MHH-ES-1; cell proliferation; bone cancer): 77.6 µM
CC(C)[C@H](NC(=O)[C@H](CCCNC(=N)N)NC(=O)[C@@H]1CCCN1C(=O)[C@@H](NC(=O)[C@H](C)NC(=O)[C@H](Cc1ccc(O)cc1)NC(=O)[C@H](CCC(N)=O)NC(=O)[C@H](CCCCN)NC(=O)[C@H](CCCNC(=N)N)NC(=O)[C@@H]1CCCN1C(=O)[C@H](CCC(=O)O)NC(=O)[C@@H](NC(=O)[C@H](C)N)[C@@H](C)O)[C@@H](C)O)C(=O)N[C@@H](Cc1ccccc1)C(=O)N[C@@H](Cc1c[nH]c2ccccc12)C(=O)N[C@H](C(=O)N[C@@H](CC(=O)O)C(=O)N[C@@H](C)C(=O)N1CCC[C@H]1C(=O)NCC(=O)NCCOCCOCCOCCOCCOCCOCCOCCOCCOCCOCCOCCOCCC(=O)N[C@@H](CS)C(N)=O)[C@@H](C)O  selectivity ratio (MCF7 breast cancer; cell binding, phage binding, refers to: output/input phage; 10 min, 37 °C; relative to: control phage): 4.2 ± 3
CC(=O)Oc1ccccc1C(=O)[Se]CC(=O)Nc1cccc(C(F)(F)F)c1  CC50 (NCI60 leukaemia subpanel; NCI60 five-dose screen): 100 µM
CC(C)C[C@@H](/C=C/[C@H](Cc1ccccc1)C(=O)N1CCC[C@H]1C(=O)N[C@H](C(=O)NC1CC(C)(C)N([O])C(C)(C)C1)C(C)C)NC(=O)OC(C)(C)C  EC50 (PANC-1; protection from ferroptosis, PrestoBlue; 24 h, with: erastin 10 µM): 367 nM
O=C(O)c1ccc(-c2nc(-c3ccccc3Cl)c3sccn23)cc1  sub-G0 cells (HEL; flow cytometry; concentration not given; relative to: cells): 2.15% and 1.57% and 2.51%
CSCC[C@H](NC(=O)[C@@H](NC(=O)[C@H](CCC(N)=O)NC(=O)[C@H](CO)NC(=O)[C@@H](N)C(C)C)[C@@H](C)O)C(=O)N[C@@H](CCCNC(=N)N)C(=O)N[C@@H](CCC(N)=O)C(=O)N[C@H](C(=O)N[C@@H](C)C(=O)N[C@H](C(=O)N1CCC[C@H]1C(=O)N[C@@H](CC(C)C)C(=O)N[C@@H](CC(C)C)C(=O)N[C@@H](Cc1c[nH]c2ccccc12)C(=O)N[C@@H](Cc1ccccc1)C(=O)N[C@@H](Cc1c[nH]c2ccccc12)C(=O)N[C@H](C(=O)NCC(=O)N[C@@H](CO)C(=O)N[C@@H](CC(C)C)C(=O)NCCOCCOCCOCCOCCOCCOCCOCCOCCOCCOCCOCCOCCC(=O)N[C@@H](CS)C(N)=O)[C@@H](C)O)C(C)C)[C@@H](C)O  selectivity ratio (PC-9; phage binding; relative to: targeting over control phage): 1.9 ± 0.62
O=C(C[Se]C(=O)c1ccco1)Nc1cccc(C(F)(F)F)c1  mean TGI (NCI60 melanoma subpanel; total growth inhibition, inhibitor; five-dose): 10.3 µM
CCCCCCCCCC(=O)N[C@@H](CCCNC(=N)N)C(=O)N[C@@H](Cc1c[nH]c2ccccc12)C(=O)N[C@@H](CCCCN)C(=O)N[C@H](C(=O)N[C@@H](Cc1ccccc1)C(=O)N[C@@H](CCCCN)C(=O)N[C@@H](CCCCN)C(=O)N[C@H](C(=O)N[C@@H](CCC(=O)O)C(=O)N[C@@H](CCCCN)C(=O)N[C@H](C(=O)NCC(=O)N[C@@H](CCC(N)=O)C(=O)N[C@@H](CC(N)=O)C(=O)N[C@H](C(=O)N[C@@H](CCCNC(=N)N)C(=O)N[C@@H](CC(=O)O)C(=O)NCC(=O)N[C@H](C(=O)N[C@H](C(=O)N[C@@H](CCCCN)C(=O)N[C@@H](C)C(=O)NCC(=O)N1CCC[C@H]1C(=O)N[C@@H](C)C(=O)N[C@H](C(=O)N[C@@H](C)C(=O)N[C@H](C(=O)N[C@H](C(=O)NCC(=O)N[C@@H](CCC(N)=O)C(=O)N[C@@H](C)C(=O)N[C@@H](C)C(=O)N[C@H](C(=O)N[C@H](C(N)=O)[C@@H](C)CC)[C@@H](C)O)C(C)C)C(C)C)C(C)C)C(C)C)[C@@H](C)CC)[C@@H](C)CC)C(C)C)[C@@H](C)CC)[C@@H](C)CC  dead cells (MX1; trypan blue exclusion; 6 µM, 24 h): 60%
O=C(C[Se]C(=O)c1cc2ccccc2o1)Nc1cccc(C(F)(F)F)c1  CC50 (NCI60 leukaemia subpanel; NCI60 five-dose screen): 10.9 µM
COc1ccccc1-c1ccncc1C(=O)Nc1nnc(OCc2ccc(Cl)cc2)s1  colony survival (RPE-1 BRCA1 WT parental; 0.125 µM, run 2; relative to: untreated): 89.5%

Excerpt of the above:
O=C(C[Se]C(=O)c1cc2ccccc2o1)Nc1cccc(C(F)(F)F)c1  CC50 (NCI60 leukaemia subpanel; NCI60 five-dose screen): 10.9 µM
